Measured values of several laboratories.
A part holds a random share of what one study measured. “And” joins repeats or separate records; there may be more than shown.

Series 1 — cell line: HEK-293T; read-out: pseudovirus infection; organism: VSV pseudotyped with SARS-CoV-2 spike; concentration: 10 µM; time: 16 h; relative to: vehicle-treated
| SMILES | GFP-positive cells [%] |
| --- | --- |
| CCCCCCCCCCCCCCCC[N+](C)(C)CCN(Cc1ccc(OC)cc1)c1ncccn1 | 55.8 |
| O=C(Nc1c(Cl)cncc1Cl)c1ccc(OC(F)F)c(OCC2CC2)c1 | 96.4 |
| COc1c(C)c2c(c(O)c1C/C=C(\C)CCC(=O)O)C(=O)OC2 | 5.81 |
| CS(=O)(=O)CCNCc1ccc(-c2ccc3ncnc(Nc4ccc(OCc5cccc(F)c5)c(Cl)c4)c3c2)o1 | 22.7 |

Series 2 — read-out: enzyme activity; mode: inhibitor; concentration: 20 µM; notes: hit confirmation
Target: Replicase polyprotein 1ab, main protease (rep, Severe acute respiratory syndrome coronavirus 2, UniProt P0DTD1)
| Structure (SMILES) | inhibition |
| --- | --- |
| CC1=C(CCC(=O)O)c2cc3[nH]c(cc4nc(cc5[nH]c(cc1n2)c(C)c5C(C)O)C(C)=C4C(C)O)c(C)c3CCC(=O)O (centres unmarked) | 27.1% |
| CCN1CCN(C(c2ccc(C(F)(F)F)cc2)c2ccc3cccnc3c2O)CC1 (centres unmarked) | 110% |
| CCCC[C@@H](C=O)NC(=O)[C@H](CC(C)C)NC(=O)OCc1ccccc1 | 78.2% and 57.5% |

Series 3 — read-out: enzyme activity; mode: inhibitor; concentration: 20 µM
Target: Replicase polyprotein 1ab, polymerase (rep, Severe acute respiratory syndrome coronavirus 2, UniProt P0DTD1)
| SMILES | inhibition [%] |
| --- | --- |
| N[C@@H](CSS(=O)(=O)O)C(=O)O | 6.8 |
| CC[C@@H](CO)NC(=O)[C@@H]1C=C2c3cccc4[nH]cc(c34)C[C@H]2N(C)C1 | 2.03 |
| CCC/C=C1\OC(=O)C2=C1CCC=C2 | 4.03 |
| Cc1c(N2C(=O)[C@@H]3[C@H](O)CCN3C2=O)ccc(C#N)c1Cl | -8.14 |
| COc1cc2c(cc1OC)C(=O)C(CC1CCN(Cc3ccccc3)CC1)C2 (centres unmarked) | -3.48 |
| CC(N)[C@]12C[C@H]3C[C@H](C[C@H](C3)C1)C2 (some centres unmarked) | 5.04 |
| O=C(NCC(=O)N1CCCC1)Nc1ccc2cnccc2c1 | -0.64 |
| O=C1CN=C(c2cccc(Br)c2)c2oc3ccccc3c2N1 | 0.63 |
| CC(C)(C)CC(C)(C)c1cc(Cc2cc(C(C)(C)CC(C)(C)C)cc(-n3nc4ccccc4n3)c2O)c(O)c(-n2nc3ccccc3n2)c1 | -4.75 |
| O=C(O)CCc1cc(C(=O)c2ccc(OC3CCCC3)cc2O)ccc1OCc1ccc2c(=O)[nH]oc2c1 | -3.66 |
| COc1ccc2c(c1)C(=O)N(CCc1ccc(S(=O)(=O)NC(=O)NC3CCCCC3)cc1)C(=O)C2(C)C | 6.2 |
| C=CCC1(CC(C)C)C(=O)NC(=O)NC1=O | -2.52 |
| Cc1c(O)c(=O)ccn1C | 1.26 |
| COc1ccccc1OCC(O)CN1CCN(CC(=O)Nc2c(C)cccc2C)CC1 (centres unmarked) | -7.74 |
| NCC(CC(=O)O)c1ccc(Cl)cc1 (racemic) | -5.71 |
| NC(=O)N1c2ccccc2C=Cc2ccccc21 | 4.44 |
| COc1ccc2c(c1)CN(C)CC2c1ccc(Cl)c(Cl)c1 (centres unmarked) | 2.14 |
| O=C(Nc1cc(Cl)cc(Cl)c1O)c1c(O)c(Cl)cc(Cl)c1Cl | -2.84 |
| NCC(O)c1ccc(O)cc1 (centres unmarked) | -6.69 |
| NCCCCN(Cc1nc2ccccc2[nH]1)[C@H]1CCCc2cccnc21 | 7.71 |
| Clc1ccc(Nc2nnc(Cc3ccncc3)c3ccccc23)cc1 | 1.8 |
| Nc1ccc(-c2nc3ccc(-c4nc5ccc(N)cc5[nH]4)cc3[nH]2)cc1 | 69.1 |
| C=CCn1c(=O)n([C@@H]2O[C@H](CO)[C@@H](O)[C@H]2O)c2nc(N)[nH]c(=O)c21 | 3.78 |
| COc1cc(C)nc(-n2nc(C)cc2OC)n1 | 0.9 |
| O=C(Nc1cccc(C(F)(F)F)c1)Nc1cc(S(=O)(=O)NC2CC2)ccc1-c1ccsc1 | 0.95 |

Series 4 — method: protein-binding microarray; molecule type: double-stranded DNA, one strand shown; sample: in vitro; concentration: 0.8 µM; notes: whole 60-bp probe, no competitor; direction: higher = stronger binding; all sequences stand within: … GTCTTGATTCGCTTGACGCTGCTG
Target: Centromere-binding protein 1, full length, N-terminal tag (CBF1, Saccharomyces cerevisiae, UniProt P17106, residues 1-351)
Chain of UniProt P17106 (whole entry, looked up): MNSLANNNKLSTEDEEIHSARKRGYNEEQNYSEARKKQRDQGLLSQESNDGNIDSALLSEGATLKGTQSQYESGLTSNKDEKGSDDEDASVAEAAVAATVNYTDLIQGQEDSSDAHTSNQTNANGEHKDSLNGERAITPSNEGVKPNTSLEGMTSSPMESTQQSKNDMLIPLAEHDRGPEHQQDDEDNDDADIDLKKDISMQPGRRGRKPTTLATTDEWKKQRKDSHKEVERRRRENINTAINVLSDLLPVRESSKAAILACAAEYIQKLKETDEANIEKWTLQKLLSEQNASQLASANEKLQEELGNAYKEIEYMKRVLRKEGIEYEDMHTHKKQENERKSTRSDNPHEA
| Sequence | fluorescence intensity [a.u.] |
| --- | --- |
| CTACGGACCCTTCTCCACGTTTCGATCTTTGGCTTC | 500 |
| CCTAACTACTATAAACACATGCAATAGCTTCGTACA | 604 |
| CTAACGAAACTACCCCACGTTTCAAGTTTTGCTTTC | 557 |
| GAAGCTAGACAGTAGAACGTGTTTTGAAGCCAATAG | 561 |
| CTAGCACAGCAACATAACACCACCTTCTTTTAGTTC | 504 |
| TGTACGAAGCTATATCACGTGCTTATAGTAGTTAGG | 16900 |
| GAATAAATTTCACGTGATGCGGTAGTTTTTTTTTAG | 13800 |
| GAATGGTTGAATAATCATGAGAAGTACATCAATTAG | 515 |

Series 5 — method: RNA Bind-n-Seq; molecule type: RNA; sample: in vitro; concentration: 20 nM; notes: 6-mer, flanks averaged, single round; added: 150 mM LiCl; relative to: input library; direction: higher = stronger binding
Target: TAR DNA-binding protein 43, full length, His tag (TARDBP, Homo sapiens, UniProt Q13148, residues 1-414)
| Sequence | 6-mer enrichment (R) |
| --- | --- |
| GUCGAU | 0.962 |
| AGCUCA | 0.839 |
| CAAUUA | 0.947 |
| GGCAGU | 1.05 |
| UGGUGU | 1.71 |
| GUAUAC | 0.897 |
| CGCGGG | 1.08 |
| UUACAG | 0.867 |

Series 6 — method: RNAcompete; molecule type: RNA; sample: in vitro; concentration: 20 nM; notes: 7-mer, probes averaged, single round; relative to: mean of 7-mers; direction: higher = stronger binding
Target: PABPC1L2, full length, GST fusion (mouse, UniProt A0ABA7IW68)
Construct (chain): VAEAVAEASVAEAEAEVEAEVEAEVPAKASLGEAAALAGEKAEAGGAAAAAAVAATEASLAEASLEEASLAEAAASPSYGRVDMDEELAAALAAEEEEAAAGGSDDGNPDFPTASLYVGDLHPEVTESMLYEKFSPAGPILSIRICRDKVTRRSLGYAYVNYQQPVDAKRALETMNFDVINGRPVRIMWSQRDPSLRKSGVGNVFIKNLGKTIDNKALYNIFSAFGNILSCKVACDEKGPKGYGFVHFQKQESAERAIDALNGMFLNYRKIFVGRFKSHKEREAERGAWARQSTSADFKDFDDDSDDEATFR
| Sequence | 7-mer Z-score |
| --- | --- |
| GACUGGC | -0.119 |
| GAGUUUC | -0.481 |
| GCAACAU | 0.109 |
| CCACGCC | -0.331 |
| UGGAGUG | -0.157 |
| UACAGCU | -0.222 |
| CGAUUUA | 0.209 |
| ACUGGGG | 0.274 |

A few entries again (series 3):
| SMILES | inhibition [%] |
| --- | --- |
| O=C(O)CCc1cc(C(=O)c2ccc(OC3CCCC3)cc2O)ccc1OCc1ccc2c(=O)[nH]oc2c1 | -3.66 |
| COc1ccc2c(c1)C(=O)N(CCc1ccc(S(=O)(=O)NC(=O)NC3CCCCC3)cc1)C(=O)C2(C)C | 6.2 |
| C=CCC1(CC(C)C)C(=O)NC(=O)NC1=O | -2.52 |
